Measurements gathered from unrelated publications.
± gives the spread as reported.

CCn1cc(/C=C/c2sc3ccccc3[n+]2CC)c2ccccc21
fluorescence quantum yield (methanol; baseline: fluorescein): 0.033

NCCC(=O)N1Cc2ccccc2-c2c(nnn2-c2cn(C3OC(CO)C(O)C3O)c(=O)[nH]c2=O)-c2ccccc21 (mixture of isomers)
fluorescence quantum yield (methanol; baseline: quinine sulfate): 0.013

CC1=CC(C)=[N+]2C1=C(CCCC(=O)NCCCC[C@H](NC(=O)N[C@@H](CCC(=O)O)C(=O)O)C(=O)O)c1c(C)cc(C)n1[B-]2(F)F
fluorescence quantum yield (acetonitrile/water): 81 ± 5%

COCCOCCOCCOCCC(=O)NCc1cc(CNC(=O)CCOCCOCCOCCOC)cc(-c2cc3cc4nc(c(-c5ccc(CCC(=O)O)cc5)c5[nH]c(cc6nc(c(OC)c2[nH]3)CC6(C)C)cc5-c2cc(CNC(=O)CCOCCOCCOCCOC)cc(CNC(=O)CCOCCOCCOCCOC)c2)CC4(C)C)c1
fluorescence quantum yield (DMF; room temperature): 0.16

CC1=CC(C)=[N+]2C1=C(c1ccc(C[P+](C3CCCCC3)(C3CCCCC3)C3CCCCC3)cc1)c1c(C)cc(C)n1[B-]2(F)F
fluorescence quantum yield (PBS; 10 µM, pH 7.4, 298 K, with: fluorescein standard): 0.6

COCCOCCOCCOCCOCCOCCOCCOCCOCCOCCOCCOCCNC(=O)CCC1(Cc2ccccc2)c2ccccc2-c2ccc(-c3sc(-c4c5c(c(-c6sc(-c7ccc8c(c7)C(CCC(=O)NCCOCCOCCOCCOCCOCCOCCOCCOCCOCCOCCOCCOC)(Cc7ccccc7)c7ccccc7-8)c7c6OCCO7)c6nsnc46)N=S=N5)c4c3OCCO4)cc21 (stereo not shown)
fluorescence quantum yield (aqueous solution; baseline: IR-26 in 1,2-dichloroethane): 0.82%

CCn1cc(/C=C/c2ccc3ccccc3[n+]2CC)c2ccccc21
fluorescence quantum yield (DMSO; baseline: fluorescein): 0.006

COc1cc(OC)cc(C2=C3C(C)=C(I)C(C)=[N+]3[B-](F)(F)n3c(/C=C/c4cccs4)c(I)c(C)c32)c1
fluorescence quantum yield (dichloromethane; baseline: methylene blue): 0.4

CC1=CC(C)=[N+]2C1=C(CCCC(=O)O)c1c(C)cc(C)n1[B-]2(F)F
fluorescence quantum yield (acetonitrile/water): 75 ± 5%

COc1cc2oc(=O)cc(CO)c2cc1OC
fluorescence quantum yield (PBS/DMSO 90:10 v/v; about 1 µM, pH 8.0): 85.3 ± 0.6%

COCCOCCOc1ccc([P+](Cc2ccc(C3=C4C(C)=CC(C)=[N+]4[B-](F)(F)n4c(C)cc(C)c43)cc2)(c2ccc(OCCOCCOC)cc2)c2ccc(OCCOCCOC)cc2)cc1
fluorescence quantum yield (PBS; 10 µM, pH 7.4, 298 K, with: fluorescein standard): 0.62

COc1cc(OC)cc(C2=C3C(C)=C(I)C(/C=C/c4cccs4)=[N+]3[B-](F)(F)n3c(/C=C/c4cccs4)c(I)c(C)c32)c1
fluorescence quantum yield (DMSO; baseline: methylene blue): 0.01

COc1ccc(/C=C/c2ccc(-c3ccc(C)cn3)nc2)cc1
fluorescence quantum yield (DMF; with: quinine bisulfate reference): 0.37

CCN(CC)C(=S)c1ccc(-c2c3ccc(=[N+](C)C)cc-3sc3cc4c(cc23)C(C)(C)CCN4C)s1
fluorescence quantum yield (methanol; with: excitation 532 nm): 0.07 ± 0.01

Cc1c(C)c(C)[c-](C)c1C.[C-]#[O+].[C-]#[O+].[C-]#[O+].[Cl-].[Cl-].[Cl-].[Ir+3].[Re+].c1cnc(-c2ncccn2)nc1
fluorescence quantum yield (10% DMSO; baseline: quinine sulfate): 0.0077

CCCCCCCCCCCCCCCC(=O)OCC(COP(=O)([O-])OCC[N+](C)(C)Cc1cn(-c2cc3ccc(OC(=O)Oc4ccc(CCC(=O)C(F)(F)F)cc4)cc3oc2=O)nn1)OC(=O)CCCCCCCCCCCCCCC (stereo not shown)
fluorescence quantum yield (ethanol; baseline: coumarin 343): 0.09

NCCC(=O)N1Cc2ccccc2-c2c(nnn2-c2nc(N)c3ncn(C4OC(CO)C(O)C4O)c3n2)-c2ccccc21 (mixture of isomers)
fluorescence quantum yield: 10.6%

CC1=CC(C)=[N+]2C1=C(c1ccc(C[P+](c3ccccc3)(C3CCCCC3)C3CCCCC3)cc1)c1c(C)cc(C)n1[B-]2(F)F
fluorescence quantum yield (PBS; 10 µM, pH 7.4, 298 K, with: fluorescein standard): 0.67

COc1cc(/C=C2\SC(=S)NC2=O)cc(OC)c1OC
fluorescence quantum yield (PBS; free ligand): 0.05%

COCCOCCOCCOCCOCCOCCOCCOCCC(=O)NCCCc1cc2cc3nc(cc4[nH]c(cc5nc(c(OC)c1[nH]2)C(=O)C5(C)C)cc4CCc1ccc(C(=O)O)cc1)CC3(C)C
fluorescence quantum yield (water with 5% DMF; room temperature): 0.075

Nc1ncnc2c1nc(-n1nnc3c1CCC1C(CO)C1CC3)n2C1CC(O)C(CO)O1 (mixture of isomers)
fluorescence quantum yield (methanol; baseline: quinine sulfate): 0.014

CCOC(=O)c1[nH]c(C)c(/C=C/C2=[N+]3C(=C(c4cc(OC)cc(OC)c4)c4c(C)c(I)c(/C=C/c5c(C)[nH]c(C(=O)OCC)c5C)n4[B-]3(F)F)C(C)=C2I)c1C
fluorescence quantum yield (DMSO; baseline: methylene blue): 0.07

CC1=CC(C)=[N+]2C1=C(CCCC(=O)NCC1CCC(C(=O)NC(Cc3ccc4ccccc4c3)C(=O)NCCCCC(NC(=O)NC(CCC(=O)O)C(=O)O)C(=O)O)CC1)c1c(C)cc(C)n1[B-]2(F)F (stereo not shown)
fluorescence quantum yield (acetonitrile/water): 81 ± 5%

Cc1ccc(C(C)C)cc1.[C-]#[O+].[C-]#[O+].[C-]#[O+].[Cl-].[Cl-].[Cl-].[Re+].[Ru+2].c1cnc(-c2ncccn2)nc1
fluorescence quantum yield (10% DMSO; baseline: quinine sulfate): 0.0095

CCN(CC)C(=O)c1ccc(-c2c3ccc(=[N+](C)C)cc-3sc3cc4c(cc23)C(C)(C)CCN4C)s1
fluorescence quantum yield (methanol; with: excitation 532 nm): 0.09 ± 0.01

COc1cc(OC)cc(C2=C3C(C)=C(I)C(/C=C/c4c[nH]c5ccc([N+](=O)[O-])cc45)=[N+]3[B-](F)(F)n3c(/C=C/c4c[nH]c5ccc([N+](=O)[O-])cc45)c(I)c(C)c32)c1
fluorescence quantum yield (DMSO; baseline: methylene blue): 0.02

Nc1ncnc2c1nc(-n1nnc3c1CCC1C(CO)C1CC3)n2C1OC(CO)C(O)C1O (mixture of isomers)
fluorescence quantum yield: 0.6%

CCOC(=O)c1[nH]c(C)c(/C=C/c2c(I)c(C)c3n2[B-](F)(F)[N+]2=C(C)C(I)=C(C)C2=C3c2cc(OC)cc(OC)c2)c1C
fluorescence quantum yield (dichloromethane; baseline: methylene blue): 0.21

C[Si](C)(C)CCOC(=O)CCC1(Cc2ccccc2)c2ccccc2-c2ccc(-c3sc(-c4c5c(c(-c6sc(-c7ccc8c(c7)C(CCC(=O)OCC[Si](C)(C)C)(Cc7ccccc7)c7ccccc7-8)c7c6OCCO7)c6nsnc46)N=S=N5)c4c3OCCO4)cc21 (stereo not shown)
fluorescence quantum yield (dichloromethane; baseline: IR-26): 15.2%

COc1ccc2cc(-c3ccc(-c4ccc(C)cn4)nc3)oc2c1
fluorescence quantum yield (dioxane; with: quinine bisulfate reference): 0.78

COc1cc(OC)cc(C2=C3C(C)=C(I)C(/C=C/c4c[nH]c5ccccc45)=[N+]3[B-](F)(F)n3c(/C=C/c4c[nH]c5ccccc45)c(I)c(C)c32)c1
fluorescence quantum yield (dichloromethane; baseline: methylene blue): 0.15

A few entries again:
CCOC(=O)c1[nH]c(C)c(/C=C/C2=[N+]3C(=C(c4cc(OC)cc(OC)c4)c4c(C)c(I)c(/C=C/c5c(C)[nH]c(C(=O)OCC)c5C)n4[B-]3(F)F)C(C)=C2I)c1C
fluorescence quantum yield (DMSO; baseline: methylene blue): 0.07

COc1ccc2cc(-c3ccc(-c4ccc(C)cn4)nc3)oc2c1
fluorescence quantum yield (dioxane; with: quinine bisulfate reference): 0.78

Cc1ccc(C(C)C)cc1.[C-]#[O+].[C-]#[O+].[C-]#[O+].[Cl-].[Cl-].[Cl-].[Re+].[Ru+2].c1cnc(-c2ncccn2)nc1
fluorescence quantum yield (10% DMSO; baseline: quinine sulfate): 0.0095

CCn1cc(/C=C/c2sc3ccccc3[n+]2CC)c2ccccc21
fluorescence quantum yield (methanol; baseline: fluorescein): 0.033

COCCOCCOCCOCCOCCOCCOCCOCCOCCOCCOCCOCCNC(=O)CCC1(Cc2ccccc2)c2ccccc2-c2ccc(-c3sc(-c4c5c(c(-c6sc(-c7ccc8c(c7)C(CCC(=O)NCCOCCOCCOCCOCCOCCOCCOCCOCCOCCOCCOCCOC)(Cc7ccccc7)c7ccccc7-8)c7c6OCCO7)c6nsnc46)N=S=N5)c4c3OCCO4)cc21 (stereo not shown)
fluorescence quantum yield (aqueous solution; baseline: IR-26 in 1,2-dichloroethane): 0.82%
